Experimental data pooled from the literature.
Each numbered part is a random draw from the data of one study; scales do not carry over between parts. Substitutions count along the parent as printed.

Sample 1
Target: Fragile X messenger ribonucleoprotein 1, C-terminal low-complexity region (Fmr1, Mus musculus, UniProt P35922)
Technique: RNA Bind-n-Seq
Molecule type: RNA
Medium: in vitro
Tested at: 200 nM
Notes: whole 134-nt RNA, ends assumed
Together with: 150 mM KCl
Reference: input library
Direction: higher = stronger binding
Constant ends, left off below: GGGAGUUCUACAGUCCGACGAUC … UGGAAUUCUCGGGUGUCAAGG
Sequence	log2 enrichment
GUCCUGUGCUACACAUCGUAUGUACCGAAUCGGGAAAAAGGGUUUGGGAAAAAAAGGGAAAGUAUUAUGUUACGCCGUUCGGAUCUGCAC	-0.675
UUUAAUGUCUGCGGCACAAUGCCUGUCUGUGGGACCAUCCUGGGAAAACCUGCUUCUGGCUGUGAGGCAGAAACCCAAACUGAAGAGCUC	0.235
CCUGUGCUACACAUCGUAUGUACCGAAUCGGAAAAAAAGGGAAAAAAAGGAAAAAAAGGGGAAAGUAUUAUGUUACGCCGUUCGGAUCUG	-1.03
UCCUCAAGUCCUGUGCUACACAUCGUAUGUACCGAAUCGGGUGGGUGGUGGAAAGUAUUAUGUUACGCCGUUCGGAUCUGCACUUCCAGC	0.192
CUGUGCUACACAUCGUAUGUACCGAAUCGGGGAAAAAAAGGGGUUUUUUUGGGGAAAGGGGAAAGUAUUAUGUUACGCCGUUCGGAUCUG	-0.0226
GUCCUGUGCUACACAUCGUAUGUACCGAAUCGGGGCCCCGGGCCCCGGGGCCCCGGGGAAAGUAUUAUGUUACGCCGUUCGGAUCUGCAC	-1.06
UCCUGUGCUACACAUCGUAUGUACCGAAUCGGGGAGGGGAAAAAAAGGGGUUUUUGGGGAAAGUAUUAUGUUACGCCGUUCGGAUCUGCA	0.683
CCUCAAGUCCUGUGCUACACAUCGUAUGUACCGAAUCGGGAAGGGAAGGAAGGAAAGUAUUAUGUUACGCCGUUCGGAUCUGCACUUCCA	-0.274
CACAGACAACACGCUCCCACACAGACACAGAGGGAAGGGGUUGGGAUGGGGACAGGGUGCACAGCAGGGCGGGGUAGGACCCCAGCCCCU	1.87
UAACUUUAGAGGAGGAUCUGAUGGAUAUGGCAGUGGACGUGGAUUUGGGGAUGGCUAUACUGGGUAUGGAGGAGGACCUGGAGGUGGCAA	0.34

Sample 2
Target: Histone acetyltransferase KAT6A, winged helix 1, GST fusion (KAT6A, Homo sapiens, UniProt Q92794, residues 1-85)
Technique: protein binding microarray
Molecule type: double-stranded DNA, one strand shown
Medium: in vitro
Tested at: not given
Notes: 8-mer, flanks averaged, mean of 2 arrays, mostly near background
Reference: not given
Direction: higher = stronger binding
Target sequence (chain): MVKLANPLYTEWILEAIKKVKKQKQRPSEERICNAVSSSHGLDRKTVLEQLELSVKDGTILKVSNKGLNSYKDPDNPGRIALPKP
Sequence	E-score
TAATCCTA	0.0234
GCCCTCAC	-0.0363
CACTACTA	-0.0611
TACCTAGA	-0.221
AAGTTCAT	-0.191
CACATTCC	-0.0299
CATCGATG	-0.161
AATCGAGC	-0.0708
ATTTGTCC	-0.182
AATCGATG	-0.195
ACTTCCTG	-0.174
CCTATTCG	-0.0568
AGATCCTA	-0.227
TCTCGACA	-0.174
GATGCGGA	0.223
CAGACTGC	-0.0671
CCAAAGCA	-0.108
ATTCATCG	-0.0966
AACCAGGA	0.00688
TGGAAAAA	-0.0687
CGTCGCCC	0.295
CTGGCGTC	0.00856
CAGGATGC	-0.0742
CGCCCGAG	0.223
CGTTCTAG	0.0243

Sample 3
Target: CCND1, cyclin fold, Cln2 fusion (human)
Technique: yeast growth competition, sequencing
Medium: yeast
Notes: weak parent motif
Reference: not given
Direction: higher = stronger binding
Starting sequence: SAMHD1 docking peptide (human); ASKSRVQLFKDDP; partner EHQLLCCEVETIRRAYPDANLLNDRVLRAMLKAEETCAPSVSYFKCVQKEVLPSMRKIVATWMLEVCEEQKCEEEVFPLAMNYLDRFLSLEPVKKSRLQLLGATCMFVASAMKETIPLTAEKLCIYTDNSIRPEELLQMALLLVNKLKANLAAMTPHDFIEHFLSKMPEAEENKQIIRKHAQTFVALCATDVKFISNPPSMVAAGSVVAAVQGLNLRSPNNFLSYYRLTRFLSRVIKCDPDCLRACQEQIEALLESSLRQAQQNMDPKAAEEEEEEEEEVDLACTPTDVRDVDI
Change	normalised enrichment score
ASKSRVRLFKDDP [Q7R]	0.587
ASKSRVQLFKNDP [D11N]	0.323
ASKSRVQLFLDDP [K10L]	0.81
ASKSRVQLFKRDP [D11R]	0.689
ASKSRVQLFKDEP [D12E]	0.84
ASYSRVQLFKDDP [K3Y]	0.257
ASKSRVQLFFDDP [K10F]	0.502
ASKSRVQLAKDDP [F9A]	-0.0864
ASKSRVQLVKDDP [F9V]	0.278
ASKARVQLFKDDP [S4A]	1.44
ASKSRLQLFKDDP [V6L]	0.149
ASKSRVQKFKDDP [L8K]	0.233
ASKERVQLFKDDP [S4E]	-0.0235
ASKSRVQLGKDDP [F9G]	-0.141
ASKSRVQLFDDDP [K10D]	0.44
ASKSRVQWFKDDP [L8W]	-0.0432
ASKSRVQSFKDDP [L8S]	0.106
ASKSRVQLFADDP [K10A]	0.451
AKKSRVQLFKDDP [S2K]	0.113
ASKSRVQEFKDDP [L8E]	0.277
ACKSRVQLFKDDP [S2C]	0.527
ASKSRVQLWKDDP [F9W]	0.275
ASHSRVQLFKDDP [K3H]	0.838
AYKSRVQLFKDDP [S2Y]	0.706
ASKSPVQLFKDDP [R5P]	0.492

Sample 4
Target: Sal-like protein 4, full length isoform A (SALL4, Homo sapiens, UniProt Q9UJQ4, residues 1-1053)
Sequence of UniProt Q9UJQ4 (whole entry, looked up): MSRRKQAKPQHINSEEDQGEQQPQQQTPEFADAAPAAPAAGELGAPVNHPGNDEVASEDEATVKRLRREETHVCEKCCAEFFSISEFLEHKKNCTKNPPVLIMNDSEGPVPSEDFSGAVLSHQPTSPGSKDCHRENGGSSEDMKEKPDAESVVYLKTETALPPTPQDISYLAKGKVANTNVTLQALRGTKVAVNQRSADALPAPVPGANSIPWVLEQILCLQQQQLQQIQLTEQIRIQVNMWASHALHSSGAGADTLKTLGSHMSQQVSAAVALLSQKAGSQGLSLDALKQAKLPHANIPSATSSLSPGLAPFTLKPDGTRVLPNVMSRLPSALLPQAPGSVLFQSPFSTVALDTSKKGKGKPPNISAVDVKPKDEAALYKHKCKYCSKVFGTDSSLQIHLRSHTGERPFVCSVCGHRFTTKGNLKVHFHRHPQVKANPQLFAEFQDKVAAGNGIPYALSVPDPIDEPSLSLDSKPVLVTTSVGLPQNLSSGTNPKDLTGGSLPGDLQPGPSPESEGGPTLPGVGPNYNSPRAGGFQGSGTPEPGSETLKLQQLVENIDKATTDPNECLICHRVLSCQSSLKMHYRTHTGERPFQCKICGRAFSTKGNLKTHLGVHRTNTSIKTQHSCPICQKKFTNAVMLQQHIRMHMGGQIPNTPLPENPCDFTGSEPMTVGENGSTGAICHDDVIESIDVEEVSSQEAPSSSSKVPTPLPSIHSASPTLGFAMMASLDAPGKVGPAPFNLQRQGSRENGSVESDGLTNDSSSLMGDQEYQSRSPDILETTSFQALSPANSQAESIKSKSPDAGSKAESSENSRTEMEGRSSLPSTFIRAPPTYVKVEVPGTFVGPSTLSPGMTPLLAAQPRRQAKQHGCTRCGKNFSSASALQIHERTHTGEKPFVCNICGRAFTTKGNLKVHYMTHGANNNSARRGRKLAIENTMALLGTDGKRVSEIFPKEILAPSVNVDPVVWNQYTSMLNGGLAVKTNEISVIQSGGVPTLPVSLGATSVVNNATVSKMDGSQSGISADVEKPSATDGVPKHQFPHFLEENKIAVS
Technique: universal PBM
Molecule type: double-stranded DNA, one strand shown
Medium: in vitro
Tested at: 600 nM
Notes: 8-mer, flanks averaged, mean of replicates
Direction: higher = stronger binding
Sequence	E-score
AACTTCTC	0.136
ACCCCCGG	-0.308
AACTTGTG	0.124
CGGTAACA	0.12
ATGCGGAA	0.0267
ATACGAGA	0.154
AGCTGAAG	-0.0877
CTTTACCC	0.018
CGTGTAGC	-0.13
CTTTCGAA	0.0781
AGCCGTAG	-0.139
ATCGCTAC	-0.0189
ACACGCGG	-0.182
GTTCGAAA	0.102
ATGTTACC	0.0886
ATCTGAGC	-0.0481
GAACAGAA	0.0642
AACCCGCC	-0.276
ATAATGGG	0.26
CTAACTTC	0.176
AAGGTGCA	-0.0406
ACGTAGAA	0.0831
CCACAGCG	-0.212
AATCACCC	-0.0146
CAGGATAA	0.0647

Excerpt of the above (sample 2):
Sequence	E-score
ATTTGTCC	-0.182
AATCGATG	-0.195
TCTCGACA	-0.174
TAATCCTA	0.0234
CCTATTCG	-0.0568
TGGAAAAA	-0.0687
AAGTTCAT	-0.191
GATGCGGA	0.223
CACTACTA	-0.0611
